Measured values gathered from unrelated publications.
Numbered parts are unrelated; each lists some results of a single study. Values joined by “and” are separate records of one study, mostly repeats; a detail may differ.
UniProt Q9C7I9, sequence (whole entry, looked up): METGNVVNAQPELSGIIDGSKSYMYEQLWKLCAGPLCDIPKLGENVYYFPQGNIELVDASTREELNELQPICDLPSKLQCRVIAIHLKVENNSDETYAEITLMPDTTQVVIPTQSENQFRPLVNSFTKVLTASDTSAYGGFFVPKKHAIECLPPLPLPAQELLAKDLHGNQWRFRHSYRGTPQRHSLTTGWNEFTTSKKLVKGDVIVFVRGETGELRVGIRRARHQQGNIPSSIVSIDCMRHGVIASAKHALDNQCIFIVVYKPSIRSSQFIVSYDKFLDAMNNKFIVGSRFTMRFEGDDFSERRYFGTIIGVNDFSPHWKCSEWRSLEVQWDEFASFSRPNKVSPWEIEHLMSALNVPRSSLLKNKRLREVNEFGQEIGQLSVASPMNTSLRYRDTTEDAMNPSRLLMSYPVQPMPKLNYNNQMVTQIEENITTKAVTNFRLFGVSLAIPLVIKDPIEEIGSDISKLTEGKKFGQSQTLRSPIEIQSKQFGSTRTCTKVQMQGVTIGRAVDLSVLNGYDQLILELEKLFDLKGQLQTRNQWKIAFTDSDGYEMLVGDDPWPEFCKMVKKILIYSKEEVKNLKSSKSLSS
UniProt Q9FGV1, sequence (whole entry, looked up): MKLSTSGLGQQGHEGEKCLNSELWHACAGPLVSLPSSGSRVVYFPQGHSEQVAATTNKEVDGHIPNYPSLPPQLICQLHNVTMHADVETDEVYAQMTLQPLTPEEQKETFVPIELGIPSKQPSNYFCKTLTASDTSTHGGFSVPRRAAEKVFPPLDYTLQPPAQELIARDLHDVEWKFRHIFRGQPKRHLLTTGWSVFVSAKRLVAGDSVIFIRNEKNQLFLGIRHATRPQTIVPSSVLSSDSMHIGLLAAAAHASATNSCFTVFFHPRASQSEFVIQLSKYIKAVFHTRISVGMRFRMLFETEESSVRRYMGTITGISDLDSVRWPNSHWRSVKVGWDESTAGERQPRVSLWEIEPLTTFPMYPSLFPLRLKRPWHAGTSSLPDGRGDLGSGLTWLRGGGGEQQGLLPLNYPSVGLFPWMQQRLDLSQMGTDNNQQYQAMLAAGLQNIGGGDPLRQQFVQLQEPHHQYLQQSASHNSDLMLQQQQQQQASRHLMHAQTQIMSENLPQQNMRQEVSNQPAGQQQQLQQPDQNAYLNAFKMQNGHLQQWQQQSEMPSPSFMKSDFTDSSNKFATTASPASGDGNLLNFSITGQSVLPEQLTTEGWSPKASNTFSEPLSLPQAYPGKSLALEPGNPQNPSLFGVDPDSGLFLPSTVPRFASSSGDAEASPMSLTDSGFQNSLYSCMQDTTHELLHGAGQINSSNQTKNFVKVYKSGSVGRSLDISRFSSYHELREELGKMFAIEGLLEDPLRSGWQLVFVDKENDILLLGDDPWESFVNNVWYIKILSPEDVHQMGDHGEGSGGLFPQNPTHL
UniProt Q9ZPY6, sequence (whole entry, looked up): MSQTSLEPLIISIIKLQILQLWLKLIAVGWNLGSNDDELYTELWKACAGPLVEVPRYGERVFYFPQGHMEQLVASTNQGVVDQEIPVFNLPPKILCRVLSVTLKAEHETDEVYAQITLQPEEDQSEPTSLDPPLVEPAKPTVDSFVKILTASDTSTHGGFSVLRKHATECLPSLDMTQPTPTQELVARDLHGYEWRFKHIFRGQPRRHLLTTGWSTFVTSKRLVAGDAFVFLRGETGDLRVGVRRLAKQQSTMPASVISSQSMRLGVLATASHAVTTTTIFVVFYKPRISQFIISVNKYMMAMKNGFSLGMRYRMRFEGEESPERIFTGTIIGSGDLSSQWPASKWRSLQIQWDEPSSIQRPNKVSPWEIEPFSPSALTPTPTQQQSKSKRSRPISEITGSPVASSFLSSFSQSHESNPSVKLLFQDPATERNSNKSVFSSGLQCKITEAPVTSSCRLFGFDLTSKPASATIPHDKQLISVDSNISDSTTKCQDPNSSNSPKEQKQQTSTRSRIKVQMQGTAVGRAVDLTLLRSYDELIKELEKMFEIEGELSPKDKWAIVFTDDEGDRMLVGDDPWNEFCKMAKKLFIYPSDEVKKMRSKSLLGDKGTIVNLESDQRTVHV
UniProt Q9H2G2, sequence (whole entry, looked up): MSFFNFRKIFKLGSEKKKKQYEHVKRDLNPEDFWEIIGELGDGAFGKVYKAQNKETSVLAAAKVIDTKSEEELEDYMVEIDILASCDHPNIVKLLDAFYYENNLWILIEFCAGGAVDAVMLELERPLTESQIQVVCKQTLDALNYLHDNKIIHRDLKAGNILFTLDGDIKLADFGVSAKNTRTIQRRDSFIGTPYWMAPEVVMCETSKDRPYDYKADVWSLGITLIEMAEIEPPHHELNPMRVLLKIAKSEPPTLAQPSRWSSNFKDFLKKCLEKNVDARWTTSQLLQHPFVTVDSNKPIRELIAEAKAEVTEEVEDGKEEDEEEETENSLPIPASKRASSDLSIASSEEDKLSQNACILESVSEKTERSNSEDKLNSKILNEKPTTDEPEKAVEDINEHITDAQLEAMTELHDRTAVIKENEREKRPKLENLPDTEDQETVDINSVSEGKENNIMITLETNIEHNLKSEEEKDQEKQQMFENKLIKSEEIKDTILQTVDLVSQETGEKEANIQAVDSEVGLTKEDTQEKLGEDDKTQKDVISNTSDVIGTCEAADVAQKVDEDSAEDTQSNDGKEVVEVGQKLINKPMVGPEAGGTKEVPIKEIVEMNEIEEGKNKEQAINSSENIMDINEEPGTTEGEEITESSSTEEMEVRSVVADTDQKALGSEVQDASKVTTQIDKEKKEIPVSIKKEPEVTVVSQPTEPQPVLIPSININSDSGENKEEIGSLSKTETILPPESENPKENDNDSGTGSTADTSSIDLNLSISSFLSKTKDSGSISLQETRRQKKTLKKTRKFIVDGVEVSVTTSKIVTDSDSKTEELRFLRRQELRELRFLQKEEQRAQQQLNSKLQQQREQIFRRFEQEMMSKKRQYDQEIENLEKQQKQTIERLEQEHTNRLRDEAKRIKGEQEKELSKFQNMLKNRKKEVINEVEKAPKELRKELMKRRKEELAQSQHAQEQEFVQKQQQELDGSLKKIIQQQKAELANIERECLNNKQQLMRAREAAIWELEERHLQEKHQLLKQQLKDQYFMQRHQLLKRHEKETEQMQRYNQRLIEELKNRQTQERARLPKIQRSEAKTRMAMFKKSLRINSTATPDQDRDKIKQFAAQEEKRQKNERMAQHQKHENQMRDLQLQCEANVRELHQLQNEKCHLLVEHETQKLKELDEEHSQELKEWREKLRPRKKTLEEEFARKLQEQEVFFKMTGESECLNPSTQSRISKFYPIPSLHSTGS
UniProt Q84WU6, sequence (whole entry, looked up): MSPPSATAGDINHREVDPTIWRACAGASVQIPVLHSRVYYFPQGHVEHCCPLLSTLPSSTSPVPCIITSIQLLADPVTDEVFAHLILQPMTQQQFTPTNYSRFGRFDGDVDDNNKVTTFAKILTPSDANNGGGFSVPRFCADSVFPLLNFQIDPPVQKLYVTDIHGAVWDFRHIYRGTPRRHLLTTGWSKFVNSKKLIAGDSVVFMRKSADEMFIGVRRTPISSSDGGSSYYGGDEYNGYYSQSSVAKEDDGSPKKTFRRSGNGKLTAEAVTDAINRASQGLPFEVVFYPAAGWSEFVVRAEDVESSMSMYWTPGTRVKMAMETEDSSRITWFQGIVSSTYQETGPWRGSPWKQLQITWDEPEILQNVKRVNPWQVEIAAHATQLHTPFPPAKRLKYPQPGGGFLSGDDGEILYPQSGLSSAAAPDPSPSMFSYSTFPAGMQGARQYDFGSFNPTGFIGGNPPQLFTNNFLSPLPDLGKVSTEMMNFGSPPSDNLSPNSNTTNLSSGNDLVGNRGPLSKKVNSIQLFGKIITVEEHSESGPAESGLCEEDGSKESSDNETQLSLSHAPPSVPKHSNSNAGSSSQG

Set 1
Target: Prothrombin, mature alpha-thrombin (F2, Homo sapiens, UniProt P00734)
Technique: aptamer microarray, sandwich
Molecule type: DNA with 2'F-ANA
Matrix: in vitro
Concentration: 200 nM
Setting: whole 15-mer aptamer, many near background
Added: Cy3 exosite-II aptamer, 400 nM
Reading: higher = stronger binding
Quantity: mean fluorescence intensity
Strand: GGTTGGTGTGGTTGG
2'F-ANA at 1 2 5 9 10 12 13: 110 a.u.
2'F-ANA at 2 3 4 5 6 9 11: 72.9 a.u.
2'F-ANA at 2 3 5 6 8 10 11 14 15: 63.9 a.u.
2'F-ANA at 3 6 9 10 12 14 15: 359 a.u.
2'F-ANA at 1 4 6 7 8 9 10 11 12 14 15: 50.6 a.u.
2'F-ANA at 1 4 6 11 12 13 15: 146 a.u.
2'F-ANA at 1 3 4 5 6 7 8 9 13 14: 54.3 a.u.
2'F-ANA at 5 10 15: 60.9 a.u.

Set 2
Molecule: B1 (ARF5 788-902)
Technique: two-hybrid
Reading: higher = firmer interaction
Quantity: positive tests
B1: ARF5 788-902 (Arabidopsis thaliana, UniProt P93024); chain ATPRVRTYTKVQKTGSVGRSIDVTSFKDYEELKSAIECMFGLEGLLTHPQSSGWKLVYVDYESDVLLVGDDPWEEFVGCVRCIRILSPTEVQQMSEEGMKLLNSAGINDLKTSVS
ARF20 484-590 (Arabidopsis thaliana, UniProt Q9C7I9); baseline: out of 2 tests: 0
ARF11 500-622 (Arabidopsis thaliana, UniProt Q9ZPY6); baseline: out of 2 tests: 0
ARF8 699-811 (Arabidopsis thaliana, UniProt Q9FGV1); baseline: out of 3 tests: 0
ARF17 (Arabidopsis thaliana, UniProt Q84WU6); weak activation fusion; baseline: out of 2 tests: 0

Set 3
Target: Homeobox protein Hox-C11, full length (HOXC11, Homo sapiens, UniProt O43248, residues 1-304)
UniProt O43248, sequence (whole entry, looked up): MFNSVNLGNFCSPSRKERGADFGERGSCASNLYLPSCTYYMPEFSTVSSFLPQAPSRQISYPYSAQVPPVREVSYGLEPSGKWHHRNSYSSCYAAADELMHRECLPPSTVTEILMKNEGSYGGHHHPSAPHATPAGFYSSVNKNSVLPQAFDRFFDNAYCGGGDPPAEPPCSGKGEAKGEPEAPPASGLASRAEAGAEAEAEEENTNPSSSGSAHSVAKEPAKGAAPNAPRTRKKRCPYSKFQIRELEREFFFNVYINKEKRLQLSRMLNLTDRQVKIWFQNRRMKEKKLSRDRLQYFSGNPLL
Technique: protein-binding microarray
Molecule type: hairpin DNA
Matrix: in vitro
Concentration: not given
Setting: whole hairpin DNA, median over replicate spots
Baseline: not given
Reading: higher = stronger binding
Quantity: median fluorescence
Shared flanks, not repeated: GAGGCCA … TGGCCTCACACTC
GTTCGTAAAAGCCTCCTGGCTTTTACGAAC: 8660 a.u.
GGTCGTCAAAGCCTCCTGGCTTTGACGACC: 10700 a.u.
GGTCGTTAAAGCCTCCTGGCTTTAACGACC (5mC at 11 33): 10600 a.u.
GGTCGTACGAGCCTCCTGGCTCGTACGACC (5mC at 29): 11000 a.u.
AGTCGTTAAAGCCTCCTGGCTTTAACGACT: 10200 a.u.
GGTGGTTAAAGCCTCCTGGCTTTAACCACC: 9400 a.u.
GGTCGTGAAAGCCTCCTGGCTTTCACGACC (5mC at 31): 10900 a.u.
GGTCGTTAAGGCCTCCTGGCCTTAACGACC (5mC at 28): 10600 a.u.

Mixed results
Cn1cncc1[C@@](O)(COc1ccc(C#N)cc1-c1ccc(OC(F)(F)F)cc1)c1ccc(C#N)cc1  cells with altered mitochondria (HEK293T; high-content imaging; 10 µM, 12 h): 30.5% and 28.1%
Cc1cncc2cccc(S(=O)(=O)N3CCCN(C(=O)CN)C[C@@H]3C)c12  remaining activity (STE20-like serine/threonine-protein kinase (SLK, Homo sapiens, UniProt Q9H2G2); enzyme activity, inhibitor; 0.5 µM; baseline: control): 90.4%

For quick reference, copied from above (set 1):
2'F-ANA at 3 6 9 10 12 14 15: 359 a.u.
